Published values pooled from the literature.
Protocols differ between the studies behind these lines. Several values in a cell are separate wells, animals, samples, runs or records. ± gives the spread as reported.
Melanocortin receptor 3: Melanocortin receptor 3 (Mus musculus, UniProt P33033)
Sequence of UniProt P33033 (whole entry, looked up): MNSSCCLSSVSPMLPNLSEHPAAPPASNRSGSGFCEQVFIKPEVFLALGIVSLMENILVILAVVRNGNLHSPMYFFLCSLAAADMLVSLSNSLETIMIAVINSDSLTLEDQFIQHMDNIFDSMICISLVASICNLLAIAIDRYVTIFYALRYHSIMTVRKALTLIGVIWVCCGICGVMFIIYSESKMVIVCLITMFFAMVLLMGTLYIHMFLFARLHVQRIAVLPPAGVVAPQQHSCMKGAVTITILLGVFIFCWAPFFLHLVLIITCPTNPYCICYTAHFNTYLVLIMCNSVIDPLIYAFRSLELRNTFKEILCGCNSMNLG
CDK9 with cyclin T1: Cyclin-dependent kinase 9, with cyclin T1 (CDK9, Homo sapiens, UniProt P50750)
Sequence of UniProt P50750 (whole entry, looked up): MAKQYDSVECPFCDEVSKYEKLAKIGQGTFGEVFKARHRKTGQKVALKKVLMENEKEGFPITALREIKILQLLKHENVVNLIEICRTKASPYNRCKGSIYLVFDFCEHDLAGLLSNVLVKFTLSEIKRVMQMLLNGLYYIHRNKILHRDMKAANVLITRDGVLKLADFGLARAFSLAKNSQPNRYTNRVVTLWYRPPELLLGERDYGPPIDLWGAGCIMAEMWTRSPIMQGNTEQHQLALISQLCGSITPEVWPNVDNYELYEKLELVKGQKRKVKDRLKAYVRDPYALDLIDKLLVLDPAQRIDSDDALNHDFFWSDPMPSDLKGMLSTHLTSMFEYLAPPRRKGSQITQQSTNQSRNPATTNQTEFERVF
PTGER1: Prostaglandin E2 receptor EP1 subtype (PTGER1, Homo sapiens, UniProt P34995)
Sequence of UniProt P48169 (whole entry, looked up): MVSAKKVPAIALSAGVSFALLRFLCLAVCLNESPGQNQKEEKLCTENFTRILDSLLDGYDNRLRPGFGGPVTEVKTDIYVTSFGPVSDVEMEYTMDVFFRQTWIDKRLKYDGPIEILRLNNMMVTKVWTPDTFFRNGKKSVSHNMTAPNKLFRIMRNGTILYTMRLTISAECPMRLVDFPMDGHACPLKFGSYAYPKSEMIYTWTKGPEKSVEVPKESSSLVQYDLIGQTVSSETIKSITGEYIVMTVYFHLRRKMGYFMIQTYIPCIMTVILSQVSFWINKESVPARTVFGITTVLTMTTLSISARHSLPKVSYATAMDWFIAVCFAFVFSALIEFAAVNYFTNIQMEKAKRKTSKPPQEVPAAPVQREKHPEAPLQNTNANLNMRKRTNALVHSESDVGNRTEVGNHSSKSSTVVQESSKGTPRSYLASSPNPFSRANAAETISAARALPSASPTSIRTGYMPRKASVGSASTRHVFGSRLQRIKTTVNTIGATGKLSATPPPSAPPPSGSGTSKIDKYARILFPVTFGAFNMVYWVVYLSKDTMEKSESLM
Sequence of UniProt P34995 (whole entry, looked up): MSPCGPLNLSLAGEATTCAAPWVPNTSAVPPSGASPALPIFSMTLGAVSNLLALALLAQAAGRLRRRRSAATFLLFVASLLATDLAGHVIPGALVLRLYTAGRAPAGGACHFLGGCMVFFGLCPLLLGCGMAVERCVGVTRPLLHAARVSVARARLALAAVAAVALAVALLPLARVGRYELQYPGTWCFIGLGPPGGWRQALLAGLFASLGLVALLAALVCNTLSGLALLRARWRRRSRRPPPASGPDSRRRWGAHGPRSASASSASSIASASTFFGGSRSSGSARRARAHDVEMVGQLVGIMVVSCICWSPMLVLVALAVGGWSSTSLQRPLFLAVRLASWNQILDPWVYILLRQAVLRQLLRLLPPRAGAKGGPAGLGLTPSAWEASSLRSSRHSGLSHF
Sequence of UniProt P45983 (whole entry, looked up): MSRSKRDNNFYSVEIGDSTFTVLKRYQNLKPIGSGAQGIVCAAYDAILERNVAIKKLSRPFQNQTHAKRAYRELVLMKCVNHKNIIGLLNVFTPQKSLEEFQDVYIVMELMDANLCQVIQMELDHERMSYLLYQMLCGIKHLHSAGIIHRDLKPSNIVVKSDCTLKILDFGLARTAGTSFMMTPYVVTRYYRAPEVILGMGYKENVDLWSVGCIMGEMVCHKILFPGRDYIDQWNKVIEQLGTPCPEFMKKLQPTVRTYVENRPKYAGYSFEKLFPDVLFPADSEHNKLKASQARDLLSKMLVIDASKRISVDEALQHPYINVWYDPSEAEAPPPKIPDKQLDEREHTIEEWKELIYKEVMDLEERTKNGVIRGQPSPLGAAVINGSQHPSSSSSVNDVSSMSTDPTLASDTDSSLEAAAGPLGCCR
Sequence of UniProt O14764 (whole entry, looked up): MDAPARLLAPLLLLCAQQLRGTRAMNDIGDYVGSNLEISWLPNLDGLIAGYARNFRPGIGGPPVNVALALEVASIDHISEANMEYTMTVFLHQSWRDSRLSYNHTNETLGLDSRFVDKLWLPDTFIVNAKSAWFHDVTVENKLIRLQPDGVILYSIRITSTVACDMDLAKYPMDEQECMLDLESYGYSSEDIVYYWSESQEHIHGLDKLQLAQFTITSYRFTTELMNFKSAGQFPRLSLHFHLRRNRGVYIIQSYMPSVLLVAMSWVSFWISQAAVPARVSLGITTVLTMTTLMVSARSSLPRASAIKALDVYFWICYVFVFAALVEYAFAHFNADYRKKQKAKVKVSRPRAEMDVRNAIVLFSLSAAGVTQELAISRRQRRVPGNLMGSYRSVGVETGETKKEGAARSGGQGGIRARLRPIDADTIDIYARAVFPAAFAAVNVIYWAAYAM
Sequence of UniProt Q13258 (whole entry, looked up): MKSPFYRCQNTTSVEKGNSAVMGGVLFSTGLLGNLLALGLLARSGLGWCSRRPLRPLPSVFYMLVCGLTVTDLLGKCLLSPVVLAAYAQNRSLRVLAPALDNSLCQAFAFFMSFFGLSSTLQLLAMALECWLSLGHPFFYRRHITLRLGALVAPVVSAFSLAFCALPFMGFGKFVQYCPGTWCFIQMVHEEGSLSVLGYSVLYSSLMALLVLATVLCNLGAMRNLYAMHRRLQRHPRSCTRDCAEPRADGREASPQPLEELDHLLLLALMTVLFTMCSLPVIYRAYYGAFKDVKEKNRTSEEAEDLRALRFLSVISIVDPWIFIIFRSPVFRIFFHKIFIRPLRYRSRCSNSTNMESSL
Sequence of UniProt P47870 (whole entry, looked up): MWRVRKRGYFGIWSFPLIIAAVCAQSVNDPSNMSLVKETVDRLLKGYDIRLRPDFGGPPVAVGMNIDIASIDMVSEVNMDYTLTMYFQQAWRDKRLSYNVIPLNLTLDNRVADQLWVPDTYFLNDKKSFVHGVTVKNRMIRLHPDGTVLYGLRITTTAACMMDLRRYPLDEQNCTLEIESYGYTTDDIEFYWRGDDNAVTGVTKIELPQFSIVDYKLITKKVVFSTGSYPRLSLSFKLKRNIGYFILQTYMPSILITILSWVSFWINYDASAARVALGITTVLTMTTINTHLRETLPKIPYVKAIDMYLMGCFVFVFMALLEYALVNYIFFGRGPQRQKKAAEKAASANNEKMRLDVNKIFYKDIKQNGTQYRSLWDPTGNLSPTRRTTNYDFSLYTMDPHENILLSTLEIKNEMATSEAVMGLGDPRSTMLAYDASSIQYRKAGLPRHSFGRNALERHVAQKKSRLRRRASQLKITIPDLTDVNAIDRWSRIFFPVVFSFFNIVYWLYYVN
Sequence of UniProt P50395 (whole entry, looked up): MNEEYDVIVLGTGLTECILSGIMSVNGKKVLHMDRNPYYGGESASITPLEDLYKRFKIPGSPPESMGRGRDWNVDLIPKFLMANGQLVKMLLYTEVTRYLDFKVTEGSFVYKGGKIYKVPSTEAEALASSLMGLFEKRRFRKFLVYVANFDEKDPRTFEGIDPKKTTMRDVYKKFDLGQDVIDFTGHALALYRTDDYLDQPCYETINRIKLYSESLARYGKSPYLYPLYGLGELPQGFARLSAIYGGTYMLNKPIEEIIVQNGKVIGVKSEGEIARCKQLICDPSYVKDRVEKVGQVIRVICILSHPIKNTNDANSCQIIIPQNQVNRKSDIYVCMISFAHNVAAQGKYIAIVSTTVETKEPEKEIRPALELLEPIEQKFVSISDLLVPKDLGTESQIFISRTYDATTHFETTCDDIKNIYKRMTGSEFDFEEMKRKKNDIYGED
Sequence of UniProt Q01650 (whole entry, looked up): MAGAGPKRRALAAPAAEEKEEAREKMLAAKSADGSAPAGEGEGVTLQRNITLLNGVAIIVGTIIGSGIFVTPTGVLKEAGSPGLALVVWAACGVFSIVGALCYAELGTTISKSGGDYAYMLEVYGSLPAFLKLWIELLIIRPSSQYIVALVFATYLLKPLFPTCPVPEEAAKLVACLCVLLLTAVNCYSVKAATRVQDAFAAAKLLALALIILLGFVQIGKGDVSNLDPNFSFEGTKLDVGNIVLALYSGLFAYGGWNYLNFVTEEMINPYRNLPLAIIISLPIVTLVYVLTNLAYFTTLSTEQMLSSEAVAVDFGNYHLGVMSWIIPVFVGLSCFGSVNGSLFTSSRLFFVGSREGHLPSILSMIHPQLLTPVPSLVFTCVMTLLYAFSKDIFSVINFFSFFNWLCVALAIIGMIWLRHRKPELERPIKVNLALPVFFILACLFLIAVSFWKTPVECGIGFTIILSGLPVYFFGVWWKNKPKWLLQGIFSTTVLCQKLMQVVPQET
Sequence of UniProt Q9GZK7 (whole entry, looked up): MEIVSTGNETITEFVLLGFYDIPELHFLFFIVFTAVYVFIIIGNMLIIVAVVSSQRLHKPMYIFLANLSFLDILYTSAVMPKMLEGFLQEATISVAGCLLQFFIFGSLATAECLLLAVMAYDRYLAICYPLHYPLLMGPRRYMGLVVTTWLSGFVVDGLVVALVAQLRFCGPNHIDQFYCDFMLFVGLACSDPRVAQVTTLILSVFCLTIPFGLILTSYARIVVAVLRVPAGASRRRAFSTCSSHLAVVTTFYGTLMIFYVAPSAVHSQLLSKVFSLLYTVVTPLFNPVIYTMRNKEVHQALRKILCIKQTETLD
Sequence of UniProt Q68D91 (whole entry, looked up): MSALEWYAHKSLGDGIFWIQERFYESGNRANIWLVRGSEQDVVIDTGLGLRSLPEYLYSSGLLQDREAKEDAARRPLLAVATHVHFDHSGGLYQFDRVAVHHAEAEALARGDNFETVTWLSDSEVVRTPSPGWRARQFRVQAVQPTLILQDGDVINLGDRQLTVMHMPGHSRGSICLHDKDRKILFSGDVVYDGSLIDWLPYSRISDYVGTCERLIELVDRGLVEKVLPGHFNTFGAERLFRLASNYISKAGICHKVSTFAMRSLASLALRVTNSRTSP

Structure (SMILES) | target | assay | test system | setting | EC50
O=C(Nc1c(-c2cccs2)nc2ccccn12)c1ccc(Cl)cc1 | Gamma-aminobutyric acid receptor subunit alpha-4/beta-2/delta (Homo sapiens, UniProt O14764+P47870+P48169) | positive allosteric modulator, FLIPR membrane potential | HEK293 Flp-In | together with: GABA EC20 | 1410 nM
O=C(O)c1ccc(-c2nc(-c3cccc(C(F)(F)F)c3)cs2)cc1 | PPARA (Homo sapiens, UniProt Q07869) | binding, TR-FRET |  |  | no binding
C[C@H](NC(=O)[C@H](CC(N)=O)NC(=O)[C@H](Cc1c[nH]c2ccccc12)NC(=O)[C@H](CCCNC(=N)N)NC(=O)[C@@H](Cc1ccccc1)NC(=O)[C@H](Cc1c[nH]cn1)NC(=O)[C@H](CN=[N+]=[N-])NC(=O)[C@@H](N)Cc1ccc(O)cc1)C(=O)N[C@@H](Cc1ccccc1)C(=O)N[C@@H](CN=[N+]=[N-])C(=O)N[C@@H](Cc1ccc(O)cc1)C(N)=O | Melanocortin receptor 3 | agonist |  |  | 59 ± 5.8 nM
COC(=O)[C@@]1(C)C=C(C(=O)Nc2cccc(C(=O)Nc3ccc(Nc4nccc(-c5cccnc5)n4)c(C)c3)c2)C(=O)CC1 | MAPK8 (Homo sapiens, UniProt P45983) | target engagement, NanoBRET | HEK293 | 2 h, together with: tracer K-5 | 11.5 nM and ~10 nM
Cc1ccc2ccc3ccc[n+]4c3c2[n+]1[Ir-3]412([c]3ccccc3-c3ccc4ccc(Cl)cc4[n+]31)[c]1ccccc1-c1ccc3ccc(Cl)cc3[n+]12.F[P-](F)(F)(F)(F)F | CDK9 with cyclin T1 | enzyme activity, inhibitor |  |  | 316 nM
COc1ccc(Cn2ccc3ccc(C(=O)NO)cc32)cc1 | MBLAC2 (Homo sapiens, UniProt Q68D91) | palmitoyl-CoA hydrolysis, inhibitor |  | together with: [3H]palmitoyl-CoA | 1000 nM
O=C(c1cc2c(s1)CCCCC2)N1CCC(n2c(=O)[nH]c3ccccc32)CC1 | TRPC6 (Homo sapiens, UniProt Q9Y210) | ion current, agonist, patch clamp |  |  | 450 nM
O=C(C1CCCCC1)N1CC(=O)N2CCc3ccccc3[C@@H]2C1 | TRPM channel (Clonorchis sinensis, UniProt G7YJJ5) | calcium influx, agonist, FLIPR calcium | HEK293 transfected |  | 193 ± 110 nM
O=C(O)COc1cccc(NC(=O)c2cc(-c3cccc(F)c3)ccc2F)c1 | PTGER1 | calcium signal, agonist, fluorescence |  |  | > 10000 nM
CCC1(O)C2(C)CCC(C2)C1(C)C (stereo not shown) | OR11A1 (Homo sapiens, UniProt Q9GZK7) | cAMP, agonist, luciferase |  |  | 10100 nM
COc1ccc(C(=O)/C=C(\O)C(F)(F)C(F)(F)F)c(O)c1 | Formate-nitrite transporter (Plasmodium falciparum, UniProt O77389) | cell viability, resazurin | yeast expressing Formate-nitrite transporter | 72 h, L-lactate medium | 70 nM
Cc1cc[n+]2c(c1)-c1cc(C)cc[n+]1[Ir-3]213([c]2ccccc2-c2ccc4ccc(Cl)cc4[n+]21)[c]1ccccc1-c1ccc2ccc(Cl)cc2[n+]13.F[P-](F)(F)(F)(F)F | CDK9 with cyclin T1 | enzyme activity, inhibitor |  |  | 13.6 nM
O=P(O)(O)OP(=O)(O)OP(=O)(O)OCC1OC(n2cnc3c(Cl)ncnc32)C(O)C1O (stereo not shown) | P2X purinoceptor 2 (P2rx2, Rattus norvegicus, UniProt P49653) | ion current, agonist, two-electrode voltage clamp |  | oocytes | > 300000 nM
O=C(O)CCNC(=S)NCCCC[C@H](NS(=O)(=O)c1cccc(F)c1)C(=O)N[C@@H](Cc1c[nH]c2ccccc12)C(=O)NC1CCC1 | SIRT5 (Homo sapiens, UniProt Q9NXA8) | thermal stabilisation, ITDRF-CETSA | HEK293T | 2 h, 52 °C | 900 nM
O=C(O)/C=C/c1cccc(NC(=O)c2cc(-c3cccc(F)c3)ccc2F)c1 | PTGER1 | calcium signal, agonist, fluorescence |  |  | > 10000 nM
CCOP(=O)(OCC)c1cc[n+]2c(c1)-c1cc(P(=O)(OCC)OCC)cc[n+]1[Ir-3]213([c]2ccccc2-c2ccc4ccc(Cl)cc4[n+]21)[c]1ccccc1-c1ccc2ccc(Cl)cc2[n+]13.F[P-](F)(F)(F)(F)F | CDK9 with cyclin T1 | enzyme activity, inhibitor |  |  | > 1000 nM
N[C@@H](Cc1c[nH]c2ccc(OCc3ccc(-c4ccccc4)cc3)cc12)C(=O)O | SLC7A5 (Homo sapiens, UniProt Q01650) | leucine uptake | HT-29 | together with: [3H]-L-leucine | 19000 nM
COc1cc[n+]2c3c1ccc1c(OC)cc[n+](c13)[Rh-3]213([c]2ccccc2-c2ccc4ccc(Cl)cc4[n+]21)[c]1ccccc1-c1ccc2ccc(Cl)cc2[n+]13.F[P-](F)(F)(F)(F)F | CDK9 with cyclin T1 | enzyme activity, inhibitor |  |  | > 1000 nM
COc1ccc(CNC(=O)[C@H]2CN(C(=O)[C@H](F)Cl)CCN2S(=O)(=O)c2ccc(OC)cc2)cc1 | Non-POU domain-containing octamer-binding protein (Homo sapiens, UniProt Q15233) |  |  |  | 9000 nM
C#CC[C@H](NC(=O)[C@H](Cc1ccccc1)NC(=O)[C@H](C)NC(=O)[C@H](CC(N)=O)NC(=O)[C@H](Cc1c[nH]c2ccccc12)NC(=O)[C@H](CCCNC(=N)N)NC(=O)[C@@H](Cc1ccccc1)NC(=O)[C@H](Cc1c[nH]cn1)NC(=O)[C@H](CN=[N+]=[N-])NC(=O)[C@@H](N)Cc1ccc(O)cc1)C(=O)N[C@@H](Cc1ccc(O)cc1)C(N)=O | Melanocortin receptor 3 | agonist |  |  | 51 ± 9.3 nM
Cc1cc(C)cc(COc2cc3c(cc2OCc2cc(C)cc(C)c2)C2CC(O)CC(C)N2CC3)c1 (stereo not shown) | Rab GDP dissociation inhibitor beta (Homo sapiens, UniProt P50395) | Rab1A extraction from membranes, inhibitor | PC-3 membrane extract | together with: Rab GDP dissociation inhibitor beta 1 µM | 4960 nM
O=C(O)/C=C/c1cccc(NC(=O)c2cc(-c3ccccc3)ccc2F)c1 | PTGDR (Homo sapiens, UniProt Q13258) | calcium signal, agonist, fluorescence |  |  | > 10000 nM
CC[C@H](C)NC(=O)/C(=C\Nc1ccc(Cl)cc1)C(=O)c1ccccc1Cl | Gamma-aminobutyric acid receptor subunit alpha-4/beta3/delta (Homo sapiens, UniProt O14764+P28472+P48169) | GABA current potentiation, positive modulator, two-electrode voltage clamp | Xenopus laevis oocytes | 30 s preincubation, together with: GABA EC10 | 450 ± 100 nM
CCc1nc(-c2ccc(-c3ccc(CCC(N)(CO)COP(=O)(O)O)cc3)cc2)co1 (stereo not shown) | S1PR4 (Homo sapiens, UniProt O95977) | β-arrestin recruitment, agonist |  |  | 19.8 nM
O=c1c2sccc2n(CC2COc3ccccc3O2)c(=O)n1O (stereo not shown) | Flap endonuclease 1 (Homo sapiens, UniProt P39748) | target engagement in cells |  |  | 5100 nM

For quick reference, copied from above:
Structure (SMILES) | target | assay | test system | setting | EC50
COc1cc[n+]2c3c1ccc1c(OC)cc[n+](c13)[Rh-3]213([c]2ccccc2-c2ccc4ccc(Cl)cc4[n+]21)[c]1ccccc1-c1ccc2ccc(Cl)cc2[n+]13.F[P-](F)(F)(F)(F)F | CDK9 with cyclin T1 | enzyme activity, inhibitor |  |  | > 1000 nM
O=C(c1cc2c(s1)CCCCC2)N1CCC(n2c(=O)[nH]c3ccccc32)CC1 | TRPC6 (Homo sapiens, UniProt Q9Y210) | ion current, agonist, patch clamp |  |  | 450 nM
